Assay results gathered from unrelated publications.
Compare with care: the assays were run in different laboratories. Values joined by “and” are separate records of one study, mostly repeats; a detail may differ. Numbers after ± are the reported error.

| Compound | tested on | test | test system | conditions | scale | endpoint | value |
| --- | --- | --- | --- | --- | --- | --- | --- |
| C[C@H](Oc1ccc(Br)cc1-c1ccon1)C(=O)O | – | muscle velocity recovery cycle | human, tibialis anterior muscle | 400 mg once daily, last response peak at 15 Hz, multiple ascending dose | – | difference from placebo | 3.84% |
| N#CCC1CCN(c2nc(Nc3ccc(N4CCC(O)CC4)cc3)c3c(=O)[nH]ncc3n2)CC1 | – | Olink multiplex, item: CDCP1 | human, serum | 80 mg, day 29 | reference: baseline | fold change from baseline | -1.39 |
| Cc1cc(F)cc2c(CCC(=O)N[C@@H]3C(=O)NC[C@H]3O)c(-c3ccc(F)cc3)[nH]c12 | – | immunohistochemistry | mice, APOL1 G2, single copy, kidney | oral, 30 mg/kg twice daily, together with: IFNγ plasmid injection | direction not given | nephrin H-score | 113 and 98 and 125 and 117 and 74.6 |
| CN[C@@H]1COc2c(S(=O)(=O)NC(=O)Nc3c4c(cc5c3CCC5)CCC4)cnn2C1 | – | item: IL-18 | human participants, whole blood ex vivo | 300 mg twice daily, multiple doses, 96 h, IL-18, circulating, adjusted for, together with: LPS/ATP | reference: baseline | inhibition | 96.9% |
| CC(C)NCC(O)c1ccc(O)c(O)c1 (stereo not drawn) | – | – | ventricular cardiomyocytes, C57BL/6 mouse | dose not given, 0.148 s | – | sarcomere length | 1.58 µm |
| N#Cc1ccn2c(-c3ccncc3)c(-c3ccc(F)cc3)nc2c1 | – | kinase binding, competitor, MIB/MS competition, item: GIN4 | Candida albicans cell lysate | 10 µM | reference: DMSO | log2 fold change | -0.141 |
| O=C(O)CNC(=O)Cc1ccccc1 | – | – | ventricular cardiomyocytes, C57BL/6 mouse | dose not given, 0.732 s | – | sarcomere length | 1.72 µm |
| NC(=O)c1cnc2[nH]ccc2c1N[C@@H]1[C@@H]2CC3C[C@H]1C[C@@](O)(C3)C2 | – | CD8+ CD28+ naive T cells, flow cytometry | Caucasian humans, peripheral blood | 60 mg single dose | reference: baseline | percent change | -0.52% |
| OC(CCN1CCCCC1)(c1ccccc1)C1CC2C=CC1C2 (stereo not drawn) | – | resting-state EEG | healthy elderly humans | oral, 4 mg, eyes open, LS mean | – | EEG theta power, O2 Pz | 4.7 µV² |
| CCC(C)(C)C(=O)O[C@H]1C[C@@H](C)C=C2C=C[C@H](C)[C@H](CC[C@@H]3C[C@@H](O)CC(=O)O3)[C@H]21 | Nedd8-cullin1 interaction | neddylation, AlphaScreen | – | 100 µM | – | inhibition | 30.7% |
| CC(=O)Oc1cc2c(s1)CCN(C(C(=O)C1CC1)c1ccccc1F)C2 (stereo not drawn) | – | platelet aggregation, light transmission aggregometry | human patients, platelet-rich plasma | dose not given, 1 h, inhibition threshold 90%, together with: TRAP 15 µM | – | patients with inhibition above threshold | 0% |
| CCOC(=O)C1=C(C)NC(C)=C(C(=O)OC)C1c1cccc([N+](=O)[O-])c1 (stereo not drawn) | Nedd8-cullin1 interaction | neddylation, AlphaScreen | – | 100 µM | – | inhibition | 22.2% |
| C[C@H]1C[C@H]2CSC(N)=N[C@@]2(c2nc(NC(=O)c3ccc(OC(F)F)cn3)cs2)CO1 | – | item: Aβ1-40 | healthy adults, plasma | 400 mg single dose, 48 h post-dose | reference: placebo | percent change from baseline | -86.1% |
| N#Cc1ccc2c(-c3ccncc3)c(-c3ccc(F)cc3)nn2c1 | – | kinase binding, competitor, MIB/MS competition, item: IRE1 | Candida albicans cell lysate | 100 nM | reference: DMSO | log2 fold change | 0.445 |
| C[C@@H](NC(=O)N1C(=O)[C@H](Cc2ccnc(N)c2)[C@H]1C(=O)O)C1CCCCC1 | – | – | human | iv infusion, 0.3 mg/kg/h, 24 h | – | ACT AUEC | 16300 h·s |
| C=Cc1c(C)c2cc3nc(c(CC(=O)O)c4[nH]c(cc5nc(cc1[nH]2)C(C)=C5CC)c(C)c4C(=O)O)[C@@H](CCC(=O)O)[C@@H]3C | – | flow cytometry | 4T1 tumour-bearing mice, spleen | 2.5 mg/kg | – | CD80+ CD86+ dendritic cells | 24.5% and 25.5% and 27.1% |
| Cc1cc(Nc2ccc(S(F)(F)(F)(F)F)cc2)n2nc(C(C)(F)F)nc2n1 | – | item: dihydroorotate | female CD-1 mice, pooled urine | oral, 300 mg/kg daily, 0-8 h after dose 1 | – | DHO concentration | 6.16 ± 0.0764 µM |
| Cc1n[nH]c2ccc(-c3cc(OC[C@@H](N)Cc4ccccc4)cnc3-c3ccoc3)cc12 | – | kinase binding, competitor, MIB/MS competition, item: HST7 | Candida albicans cell lysate | 1 µM | reference: DMSO | log2 fold change | -0.0777 |

Repeated from above:
| Compound | tested on | test | test system | conditions | scale | endpoint | value |
| --- | --- | --- | --- | --- | --- | --- | --- |
| Cc1cc(Nc2ccc(S(F)(F)(F)(F)F)cc2)n2nc(C(C)(F)F)nc2n1 | – | item: dihydroorotate | female CD-1 mice, pooled urine | oral, 300 mg/kg daily, 0-8 h after dose 1 | – | DHO concentration | 6.16 ± 0.0764 µM |
| Cc1n[nH]c2ccc(-c3cc(OC[C@@H](N)Cc4ccccc4)cnc3-c3ccoc3)cc12 | – | kinase binding, competitor, MIB/MS competition, item: HST7 | Candida albicans cell lysate | 1 µM | reference: DMSO | log2 fold change | -0.0777 |
